Results pooled from the literature.
Each line is one published result; not all experiments were run side by side. ± gives the spread as reported.
Voltage-gated sodium channel: Voltage-gated sodium channel (Musca domestica, UniProt Q25439)
G-protein coupled receptor 39: G-protein coupled receptor 39 (Mus musculus, UniProt Q5U431)

CC(C)[C@H](NC(=O)[C@@H]1CSSC(C)(C)[C@H](NC(=O)[C@@H](N)CC(=O)O)C(=O)N[C@@H](Cc2ccccc2)C(=O)N[C@@H](Cc2c[nH]c3ccccc23)C(=O)N[C@@H](CCCCN)C(=O)N[C@@H](Cc2ccc(O)cc2)C(=O)N1)C(=O)O  EC50 (Urotensin-2 receptor (UTS2R, Homo sapiens, UniProt Q9UKP6, F271A); IP1 accumulation, agonist, HTRF; HEK293T; 1 h, 37 °C, F271A mutant, 6.48): 3.98 nM
CC1(C)C(C=C(Cl)Cl)C1C(=O)OCc1ccc(F)cc1 (stereo not drawn)  EC50 (Voltage-gated sodium channel; membrane potential, activator, FLIPR; HEK293 expressing house fly VGSC; extrapolated): > 50000 nM
CCCCC/C=C\C/C=C\C/C=C\C/C=C\CCCC(=O)NCCc1ccc(O)c(O)c1  EC50 (Transient receptor potential cation channel subfamily V member 1 (Trpv1, Mus musculus, UniProt Q704Y3, E571S); ion current, agonist, whole-cell patch clamp; 24 °C, E571S, +80 mV): 120 ± 30 nM
O=C1NC2(CC2)COc2ncc(F)cc2[C@H]2COCCN2c2ccn3ncc1c3n2  serum LDH activity (Sprague-Dawley rat, male, serum; oral, 10 mg/kg/day, end of recovery, 4-week subacute toxicity): 919 ± 416 U/L
CC(C)(C)C(=O)OCOP(=O)(OCOC(=O)C(C)(C)C)C1CCCN(O)C1=O (stereo not drawn)  log GI50 (SNB-19): -6.26 log M
COc1ccccc1-c1n[nH]c2nc(N[C@H]3CC[C@H](NS(=O)(=O)CC(C)C)CC3)ncc12  relative abundance (bead binding, competition bead pull-down, measured: LINJ.19.1510; Leishmania donovani extract; 10 µM; reference: vehicle): 0.65
O=C1NC(=O)c2c1c1cc(F)c[n+]3c1c1c2c2cc(O)ccc2[n]1[Ru-4]312([N]=C=S)[S+]3CC[S+]1CC[S+]2CC3 (stereo not drawn)  remaining activity (Glycogen synthase kinase-3 alpha (GSK3A, Homo sapiens, UniProt P49840); enzyme activity; 100 nM, human enzyme, added: 10 µM ATP; reference: untreated): 20%
CC(CCC(=O)NCCS(=O)(=O)O)C1CCC2C3C(O)CC4CC(OS(=O)(=O)O)CCC4(C)C3CC(O)C12C (stereo not drawn)  EC50 (G-protein coupled receptor 39; calcium signal, agonist, fluorescence): > 200000 nM
C=CC(=O)N1[C@H](c2ccc3c(c2)OCO3)c2[nH]c3ccccc3c2C[C@H]1C(=O)N1CCOCC1  EC50 (Hepatocyte nuclear factor 3-alpha (FOXA1, Homo sapiens, UniProt P55317); DNA binding enhancement, activator, NanoBRET): 12000 nM
COc1ccccc1-c1n[nH]c2nc(NC3CCN(C(=O)Cc4ccc(F)cc4F)CC3)ncc12  relative abundance (bead binding, competition bead pull-down, measured: LINJ.29.2420; Leishmania donovani extract; 10 µM; reference: vehicle): 1.19
CCOC(=O)[C@](CC)(CCCSCCOCCOCCNc1ccc([N+](=O)[O-])c2nonc12)NC(=O)c1ccc(C2CC2)c(Cc2ccc(F)cc2)n1  EC50 (Cannabinoid receptor 2 (Cnr2, Mus musculus, UniProt P47936); cAMP, agonist): 21 nM
CC(C)[C@H]1NC(=O)C[C@H]2/C=C/CCSSC[C@@H](NC1=O)C(=O)N[C@H](Cc1cccc3ccccc13)C(=O)NCC(=O)O2  inhibition (Serine/threonine-protein kinase MARK2 (MARK2, Homo sapiens, UniProt Q7KZI7); enzyme activity, inhibitor; 10 µM): -0.3%
CCCC[C@H](NC(C)=O)C(=O)N[C@H]1CCC(=O)NCCC[C@@H](C(=O)N[C@@H](C(=O)N2CCC[C@@H]2C(N)=O)C(C)C)NC(=O)[C@H](Cc2c[nH]c3ccccc23)NC(=O)[C@H](CCCNC(=N)N)NC(=O)[C@@H](Cc2ccc(F)cc2)NC(=O)[C@@H]2CCCN2C1=O  EC50 (Melanocortin receptor 4 (MC4R, Homo sapiens, UniProt P32245); cAMP, agonist): 0.36 nM
CN(C)[C@H](CNC(=O)/C=C/c1cccc2ccccc12)Cc1ccc(O)cc1  EC50 (Mu-type opioid receptor, with GoA (OPRM1, Homo sapiens, UniProt P35372); receptor activation, agonist): 8.5 ± 3.6 nM
CCN(Cc1ccccc1)C(=O)CCc1nc(CN2CCN(C(=O)Cc3ccc(OC)c(OC)c3)CC2)no1  EC50 (Potassium voltage-gated channel subfamily KQT member 5 (KCNQ5, Homo sapiens, UniProt Q9NR82); activation V1/2 shift, activator, whole-cell patch clamp; transfected cells, KV7.5 current): 760 ± 100 nM
Cc1cc(O)cc(C)c1C[C@H](N)C(=O)N[C@H](CCCNC(=N)N)C(=O)N[C@@H](Cc1ccccc1)C(=O)N(C)CC(=O)N(C)Cc1cc(C(F)(F)F)cc(C(F)(F)F)c1  EC50 (Delta-type opioid receptor (OPRD1, Homo sapiens, UniProt P41143, Y129F); agonist): 3.38 ± 1.81 nM
Cc1ccc(C)c(OCCn2cc(C(=O)O)c3ccccc32)c1  EC50 (Cell division control protein 42 homolog (CDC42, Homo sapiens, UniProt P60953); GTP binding, flow cytometry bead; EDTA buffer, added: 100 nM BODIPY-GTP): 589 nM
CC(C)C[C@H](NC(=O)OCc1ccccc1)C(=O)N[C@H](C=O)C[C@@H]1CCNC1=O  EC50 (Replicase polyprotein 1ab, main protease (rep, Human coronavirus NL63, UniProt P0C6X5); viral replication): > 15000 nM
CS(C)(=O)=Nc1ccc(-c2ccc(-c3nc4cc(O[C@@H]5CO[C@H]6[C@@H]5OC[C@H]6O)[nH]c4cc3F)cc2)cc1  inhibition (Tyrosine-protein kinase Mer (MERTK, Homo sapiens, UniProt Q12866); enzyme activity, inhibitor; 10 µM): -2%
O=C(O)CCn1c(=O)oc2cc(Cl)c(Cl)cc21  EC50 (5-hydroxytryptamine receptor 2C (HTR2C, Homo sapiens, UniProt P28335); agonist): > 25100 nM
CC(CCC(=O)NCC(=O)O)C1CCC2C3CCC4CC(O)CCC4(C)C3CCC12C (stereo not drawn)  EC50 (G-protein coupled receptor 39; calcium signal, agonist, fluorescence): > 200000 nM
CN(C)[C@H]1C[C@@]23CC[C@@]4(O2)C(=CC[C@]2(C)[C@@H](c5ccc6ccncc6c5)CC[C@H]24)C=C3[C@@H](O)[C@@H]1O  inhibition (Diacylglycerol kinase eta (DGKH, Homo sapiens, UniProt Q86XP1); ATP probe labelling, inhibitor, KiNativ profiling; 1 µM): -8.6%
CC1(C)C(C=C(Cl)Cl)C1C(=O)OCc1c(F)ccc(F)c1F (stereo not drawn)  EC50 (Voltage-gated sodium channel; membrane potential, activator, FLIPR; HEK293 expressing house fly VGSC): 4890 nM
COC1C2(O)C(=O)N3C=CC(C)(C)c4[nH]c5ccccc5c4C=C3C(=O)N2C23C(C)C(C)(C)N2c2ccccc2C13O (stereo not drawn)  EC50 (uncharacterized protein (Ixodes scapularis, UniProt A0A0N9E2I2); ion current, agonist, two-electrode voltage clamp; Xenopus oocytes; holding potential -100 mV): 3700 nM
